Published values from different studies.
A part holds a random share of what one study measured.

Sample 1
Target: Histone acetyltransferase KAT6A, both winged helices, GST fusion (KAT6A, Homo sapiens, UniProt Q92794, residues 1-181)
Method: protein binding microarray
Molecule type: double-stranded DNA, one strand shown
Matrix: in vitro
Concentration: not given
Setting: 8-mer, flanks averaged, mean of 2 arrays, mostly near background
Reference: not given
Direction: higher = stronger binding
Residues (chain): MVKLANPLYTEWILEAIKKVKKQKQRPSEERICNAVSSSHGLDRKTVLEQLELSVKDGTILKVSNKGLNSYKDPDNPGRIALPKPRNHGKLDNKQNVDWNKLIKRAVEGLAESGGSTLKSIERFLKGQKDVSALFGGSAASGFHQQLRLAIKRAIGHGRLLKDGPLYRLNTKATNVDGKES
| Oligonucleotide | E-score |
| --- | --- |
| ATAGGCTG | -0.0998 |
| AAGCACGA | -0.269 |
| ACAGTGGG | -0.212 |
| CTAGACGC | 0.0414 |
| CTCTAGAC | -0.172 |
| AACTGGCG | 0.0319 |
| CAGCGGTC | 0.1 |
| CAAGGTCA | -0.138 |
| CATAGACA | -0.079 |
| CTTGATAA | -0.0757 |
| CCACATTA | -0.169 |
| ATAGTCAA | -0.114 |
| CTGGATCC | -0.0318 |
| CCGGTCAG | 0.148 |
| AAACAGCC | -0.13 |
| GAGTCGCA | -0.0679 |
| AGAAACAG | -0.0738 |
| CTTTAATC | -0.102 |
| AAGGGGGA | -0.214 |
| AATCCCGT | 0.213 |
| AGCGTCCT | 0.0278 |
| AGATTTTC | -0.226 |
| ACAGTACT | -0.196 |
| AGACTGAA | 0.0168 |
| CTGCCTAA | -0.237 |

Sample 2
Target: Sal-like protein 4, full length isoform A (SALL4, Homo sapiens, UniProt Q9UJQ4, residues 1-1053)
Sequence of UniProt Q9UJQ4 (whole entry, looked up): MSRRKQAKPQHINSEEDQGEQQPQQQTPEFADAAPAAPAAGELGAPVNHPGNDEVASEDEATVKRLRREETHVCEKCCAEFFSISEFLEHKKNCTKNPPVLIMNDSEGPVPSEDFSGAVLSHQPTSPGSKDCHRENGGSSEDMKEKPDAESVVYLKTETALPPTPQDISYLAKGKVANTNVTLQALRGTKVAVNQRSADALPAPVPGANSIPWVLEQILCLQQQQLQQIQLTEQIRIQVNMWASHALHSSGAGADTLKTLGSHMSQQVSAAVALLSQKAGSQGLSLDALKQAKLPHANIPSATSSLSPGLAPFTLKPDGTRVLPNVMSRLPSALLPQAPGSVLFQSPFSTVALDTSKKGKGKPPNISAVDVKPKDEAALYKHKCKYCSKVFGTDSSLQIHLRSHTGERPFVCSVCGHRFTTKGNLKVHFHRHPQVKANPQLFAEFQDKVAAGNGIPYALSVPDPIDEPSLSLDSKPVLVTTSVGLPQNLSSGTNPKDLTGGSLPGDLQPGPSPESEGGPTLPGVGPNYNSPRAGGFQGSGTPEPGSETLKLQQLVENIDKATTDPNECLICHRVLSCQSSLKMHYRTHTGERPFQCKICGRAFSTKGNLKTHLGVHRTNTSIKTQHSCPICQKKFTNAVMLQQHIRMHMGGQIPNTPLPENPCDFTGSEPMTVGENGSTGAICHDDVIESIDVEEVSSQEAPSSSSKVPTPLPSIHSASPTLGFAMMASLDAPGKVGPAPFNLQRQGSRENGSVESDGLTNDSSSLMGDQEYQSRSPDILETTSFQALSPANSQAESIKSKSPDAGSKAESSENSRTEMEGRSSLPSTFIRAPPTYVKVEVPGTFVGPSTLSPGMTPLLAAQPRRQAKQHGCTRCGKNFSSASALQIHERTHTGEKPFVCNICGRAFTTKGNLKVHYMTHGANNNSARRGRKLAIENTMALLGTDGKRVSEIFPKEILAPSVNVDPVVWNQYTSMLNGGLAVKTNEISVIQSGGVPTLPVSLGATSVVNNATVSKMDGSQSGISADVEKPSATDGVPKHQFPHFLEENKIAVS
Method: universal PBM
Molecule type: double-stranded DNA, one strand shown
Matrix: in vitro
Concentration: 600 nM
Setting: 8-mer, flanks averaged, mean of replicates
Direction: higher = stronger binding
| Oligonucleotide | E-score |
| --- | --- |
| GAACAAAC | 0.19 |
| AAGGTCGC | -0.157 |
| AAATTGGG | 0.166 |
| CCCGACGA | -0.00785 |
| ACTGTCTA | 0.0519 |
| CGGTTAAG | 0.042 |
| CTCCATGC | -0.155 |
| CGGGCCAA | -0.384 |
| GCCGGTGA | -0.277 |
| AGCTTAGC | -0.0939 |
| GCCGAAGA | -0.064 |
| CATAGCCC | -0.258 |
| ATTCAAGC | 0.184 |
| AGCAAAAT | 0.252 |
| GGATGTAC | 0.0316 |
| AGTCTGTA | 0.0824 |
| ATCATCAC | 0.16 |
| AACGTTAC | 0.0881 |
| ATTGCCTA | 0.119 |
| CACATCCG | -0.0327 |
| AAGAGTAT | 0.27 |
| ATAAGGAT | 0.265 |
| CTAAGAAG | 0.204 |
| ATCACCGG | -0.212 |
| CAGGCGAC | -0.365 |

Sample 3
Target: RNA binding protein fox-1 homolog 2, RRM domain, GST-SBP tag (RBFOX2, Homo sapiens, UniProt O43251-10, residues 100-194)
Method: RNA Bind-n-Seq
Molecule type: RNA
Matrix: in vitro
Concentration: 365 nM
Setting: natural RNA segment, single round, ends assumed
Reference: no-protein control
Direction: higher = stronger binding
Target sequence (chain): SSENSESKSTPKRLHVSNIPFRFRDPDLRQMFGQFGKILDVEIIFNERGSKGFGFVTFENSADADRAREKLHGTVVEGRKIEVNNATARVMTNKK
| Oligonucleotide | RBNS enrichment (R) |
| --- | --- |
| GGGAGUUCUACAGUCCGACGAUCUCAUCGUCUUCCUUUUAUAGCUGUUUUACUUCAUUGAAUACGAUCAUGUACCCAGUGUUAACUCUUUGUUGUUGUCCCUUUCAAAUAUGGAUAACUCUGUGAACAGUCUUUGGAAUUCUCGGGUGCCAA | 0.309 |
| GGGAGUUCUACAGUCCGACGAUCCACGGCUGCGAGUAUUGUUAUAUCUAAUCCUAUUUUAAAAGAUUUUUGGUAAUAUGAAGCUUGAAUACUGGUAACAGUGAUGCAAUAUACGCAAGCUGCACAACCUGUAUUGGAAUUCUCGGGUGCCAA | 0.324 |
| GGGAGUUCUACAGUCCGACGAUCUUAUUCUUUUUCUUUACAGCUGAAAUUGCUUUAAAUGAUGGUUAAAAUUACAAAUUAAAUUGUUAAUUUUUAUCAAUGUGAUUGUAAUUAAAAAUAUUUUGAUUUAAAUAUGGAAUUCUCGGGUGCCAA | 0.606 |
| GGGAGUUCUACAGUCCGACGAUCCUCCAUUAAUACUAAUAAUUAUAUACUUUGCUGAGGAUCAAAACAGCCAAGAAAGGAAUUACUGCUAAAGCAUCUAAGAUUCUCCUGAACUGUAAAAUCAACAGGAAAUGUGGAAUUCUCGGGUGCCAA | 0.303 |
| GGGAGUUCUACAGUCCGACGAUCUGAUUUGAAAACUAAGUUCAUGUUAUAGAGUGGUUUACUGUACUAUACUUUCUCUUUUUUAUAUGAUGUCUAACAAAAAAAAAAUACAGCUCCAACAUUUUGAUUCCUGUUGGAAUUCUCGGGUGCCAA | 1.23 |
| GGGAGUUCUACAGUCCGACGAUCCCUAAGCCGGGGGUGCCUGGGGCUGGGGGGCGCUCCUUGCAAUGCCCCUCCAGCCACAGGGCAGUGAGGUGCUGCCUGUGUGAGCCGUCGGGGGAGCGGCCGGCUGUGGGUGGAAUUCUCGGGUGCCAA | 0.472 |
| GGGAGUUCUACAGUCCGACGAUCCUAUUGGCACAAGAAGUGGGGCACCCCCCCCCAGAAGGAACCAGAAACUAAGGCUAUCAAGGAGUGAGAUAGAAUGAAGACACUCCUAUUUCUCCUCCAGCCAGGGUUGCUGGAAUUCUCGGGUGCCAA | 0.724 |
| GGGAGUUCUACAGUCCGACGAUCAUACUGUAGGCACACUUUGCACUGAUAUAUCAUGAGUGAAUAAAUGUCUUGCCUACUCACGUCUCAUCCAGGAGUGUGUCUCAUAGCUAUUGCCACAUGUCCUUAUUAUAUGGAAUUCUCGGGUGCCAA | 0.948 |
| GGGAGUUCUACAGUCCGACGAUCUAGGAUCUCACUGCCUCCCUCUCUGGCCUUCCUGUCCCCUCCCUUCAGCUAUGACAGCUGGUGUGGAGUAGAAGGGCAACUAGUUCUGUUAUUUAUUGAACAUUUGGGGUUGGAAUUCUCGGGUGCCAA | 0.26 |
| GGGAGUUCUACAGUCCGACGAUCCACAUGGAAUUCCGUUUUCUGAGGUACAGCACAUUUUAGGUAACAGUAUUUAACUUGAAAUUCAUCAUGGGAGUCUGCUGCUAUACCAGGCACAAGAUAAAACUCCAAAAUGGAAUUCUCGGGUGCCAA | 0.461 |
| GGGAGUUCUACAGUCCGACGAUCCACCAGGCUGCAGCCUCCCCAAUCCCAGCCCACUUUGCUGUGUCUCUGGCGGGCUGUCCUCCUUGGUGGGAGCUGUCCUGCACACUGUAGGAUGCUUAAAGGUAUCCCUGUGGAAUUCUCGGGUGCCAA | 0.267 |
| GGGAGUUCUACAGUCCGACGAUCCUGCAACUAGAACCCUGGUCGCCUUCCUCUAACUGGAGGGCAAGCCUUCCUUUUCUAGGGCCAAACUCCUCUCCAAAUACUAGGUUGGGUUCAUUUAUCUUUUAAGGAGUUGGAAUUCUCGGGUGCCAA | 0.411 |

Sample 4
Target: Probable WRKY transcription factor 33, C-terminal DNA-binding domain (WRKY33, Arabidopsis thaliana, UniProt Q8S8P5, residues 346-449)
Method: DNA-protein interaction ELISA
Molecule type: double-stranded DNA, one strand shown
Matrix: in vitro, bacterial lysate
Concentration: not given
Setting: whole dsDNA probe, crude lysate protein
Reference: highest signal in screen
Direction: higher = stronger binding
Residues (chain): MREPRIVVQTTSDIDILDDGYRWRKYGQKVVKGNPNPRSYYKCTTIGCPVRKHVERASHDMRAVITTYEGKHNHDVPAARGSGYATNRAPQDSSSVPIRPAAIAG
| Oligonucleotide | relative absorbance |
| --- | --- |
| AAAAAACTCGCGCTTGCATCTGTGCGAAAA | 28.6 % of maximum |
| AAAAAATTAGCTTATCCTTGCTTGTGAAAA | 31.8 % of maximum |
| AAAAAATCAACCATTATGGTATTACTAAAA | 85.7 % of maximum |
| AAAAAATTTGCGCTTCATCCTGCCCCAAAA | 34.3 % of maximum |
| AAAAAATCTATTCCATTTCGCCTTCTAAAA | 57 % of maximum |
| AAAAAATTAATCCATGCTTATGTCTGAAAA | 47 % of maximum |
| AAAAAAAGGTTTGGGCTTCACGTTATAAAA | 34.9 % of maximum |
| AAAAAAGTCTGCGTCCTACCCCATTCAAAA | 57.9 % of maximum |
| AAAAAATCACAATACCTTCTCGTCATAAAA | 47.7 % of maximum |
| AAAAAATCCGTTCCCATTTGTCCGTCAAAA | 28.5 % of maximum |
| AAAAAAATCCCACTTCATTCTAAAAA | 40.5 % of maximum |
| AAAAAATAAGTAACCGAACGAAACTCAAAA | 55.5 % of maximum |
| AAAAAACGGGATTCGAAACTTTTTGTAAAA | 32.1 % of maximum |
| AAAAAAACTCAACTAGTGAACCACCAAAA | 37.7 % of maximum |
| AAAAAAAATCTTAGCTCTATCTCATCAAAA | 43.8 % of maximum |
| AAAAAATCCATTCTTCGCGTTTATCCAAAA | 44 % of maximum |
| AAAAAACACGCCATTGACACTGGTAAAAAA | 63.2 % of maximum |
| AAAAAAATCAGCCTGACTCTGGGCGTAAAA | 84.9 % of maximum |
| AAAAAATCCTATCTTGGCTTTGGCCTAAAA | 43.4 % of maximum |
| AAAAAAGTACATGCGTAGATAATGTTAAAA | 49.9 % of maximum |
| AAAAAAATATTTGAGCTAGGTTATCAAAAA | 42.4 % of maximum |
| AAAAAAGTTTCCTACTTGTGTCTGTGAAAA | 30.3 % of maximum |
| AAAAAATCCCCCCGTTTCACTCTTGCAAAA | 30.5 % of maximum |
| AAAAAATTTCTCCTTCTTTGTTCTTCAAAA | 37.2 % of maximum |

Sample 5
Target: Prothrombin, mature alpha-thrombin (F2, Homo sapiens, UniProt P00734)
Method: aptamer microarray, sandwich
Molecule type: DNA with 2'F-ANA
Matrix: in vitro
Concentration: 200 nM
Setting: whole 15-mer aptamer, many near background
Added: Cy3 exosite-II aptamer, 400 nM
Direction: higher = stronger binding
Oligonucleotide: GGTTGGTGTGGTTGG
| Modification | mean fluorescence intensity [a.u.] |
| --- | --- |
| 2'F-ANA at 1 3 4 5 8 9 12 13 | 80.1 |
| 2'F-ANA at 3 5 7 10 14 | 54.9 |
| 2'F-ANA at 1 2 6 7 8 15 | 202 |
| 2'F-ANA at 1 3 5 6 7 8 12 | 157 |
| 2'F-ANA at 1 4 6 7 8 9 10 11 15 | 50.3 |
| 2'F-ANA at 1 2 3 4 6 9 10 11 12 13 14 | 53.2 |
| 2'F-ANA at 1 3 4 7 8 9 10 11 14 | 53.4 |
| 2'F-ANA at 2 4 12 15 | 590 |
| 2'F-ANA at 1 2 6 8 15 | 204 |
| 2'F-ANA at 1 3 4 5 7 9 12 14 | 263 |
| 2'F-ANA at 2 4 9 12 15 | 666 |
| 2'F-ANA at 2 6 7 13 14 | 130 |
| 2'F-ANA at 1 2 4 5 6 7 10 11 12 15 | 52.8 |
| 2'F-ANA at 7 8 11 | 580 |
| 2'F-ANA at 2 3 11 13 14 15 | 344 |
| 2'F-ANA at 1 3 5 6 8 9 10 11 15 | 51.5 |
| 2'F-ANA at 1 3 4 6 10 12 13 14 | 58.3 |
| 2'F-ANA at 1 2 8 13 | 155 |
| 2'F-ANA at 5 7 9 11 14 | 45.6 |
| 2'F-ANA at 3 4 7 8 10 11 14 15 | 195 |

Repeated from above (sample 4):
| Oligonucleotide | relative absorbance |
| --- | --- |
| AAAAAATCAACCATTATGGTATTACTAAAA | 85.7 % of maximum |
| AAAAAAAATCTTAGCTCTATCTCATCAAAA | 43.8 % of maximum |
| AAAAAAATCCCACTTCATTCTAAAAA | 40.5 % of maximum |
| AAAAAAATATTTGAGCTAGGTTATCAAAAA | 42.4 % of maximum |
| AAAAAATCCGTTCCCATTTGTCCGTCAAAA | 28.5 % of maximum |
| AAAAAATTTGCGCTTCATCCTGCCCCAAAA | 34.3 % of maximum |
| AAAAAATCACAATACCTTCTCGTCATAAAA | 47.7 % of maximum |
| AAAAAACTCGCGCTTGCATCTGTGCGAAAA | 28.6 % of maximum |
